Measurements pooled from the literature.
Each line is one published result; not all experiments were run side by side.
Target: Casein kinase I isoform gamma-3 (CSNK1G3, Homo sapiens, UniProt Q9Y6M4)

Cc1cccc(O[C@H]2CCC[C@@H](C(C)CNCc3ccncc3)C2)c1 (relative stereo)  inhibition (kinase activity, kinome panel screening; 1 µM): -1%
O=C=[N][Ru-4]123([n]4c5ccc(O)cc5c5c6c(c7cc(F)c[n+]1c7c54)C(=O)NC6=O)[S+]1CC[S+]2CC[S+]3CC1 (stereo not drawn)  remaining activity (enzyme activity; 100 nM, human enzyme, added: 10 µM ATP; baseline: untreated): 28%
CNC(=O)C1CCN(c2cc(C)c(F)cc2NC(=O)c2ccc(-c3cc(O)ccc3C)c(C)c2)CC1  remaining binding (binding, competition with immobilised ligand; 1 µM): 74%
COc1ccc(O)cc1-c1c[nH]c2ncc(-c3cncc(C(=O)N(C)C)c3)cc12  inhibition (binding, competition with immobilised ligand; 0.2 µM): 15.1%
NC(=O)C[C@H]1CCc2sc3ncnc(O[C@H]4CC[C@H](N5CCOCC5)CC4)c3c21  inhibition (enzyme activity, inhibitor; 10 µM): 5%
CCN1CCN(Cc2ccc(C(=O)Nc3ccc(C)c(NCc4cnc5[nH]ccc5c4OC)c3)cc2C(F)(F)F)CC1  remaining binding (binding, competition with immobilised ligand; 1 µM): 99%
CN1CCN(Cc2ccc(-c3ccc(CO[C@H]4CCC[C@@H]4NC(=O)c4cc(-c5cnn(C)c5)cnc4N)cc3)cc2)CC1  inhibition (enzyme activity, inhibitor; 0.1 µM): -2%
COc1c(OCCCN2CCOCC2)ccc2c1N=C(NC(=O)c1cnc(N)nc1)N1CCN=C21  remaining activity (kinase activity, inhibitor; 1 µM; baseline: untreated control): 117%
CC(C)=CC1OC(C)(C)C2C=C3C(=O)C(Cl)=CC(O)C3C3C(O)C4OC4C(=O)C132 (stereo not drawn)  remaining binding (cell-free assay, competition with immobilised ligand; 10 µM): 95%
CCn1cc(C(=O)O)c(=O)c2c(N)c(F)c(NC3CCCCC3)cc21  inhibition (kinase activity; 0.1 µM, added: ATP at Km): 3.4%
C=CC(=O)Nc1cccc(-c2cnc3[nH]cc(C(=O)NC(C)(C)C)c3n2)c1  inhibition (enzyme activity, inhibitor; 0.1 µM): 5%
O=C(Cc1ccc(OCc2ccccc2)cc1)NC1(C(=O)O)CCN(C(=O)c2ccc(-c3cccc(Cl)c3)cc2)CC1  activity vs control (enzyme activity, inhibitor; 10 µM): 78%
Cc1cnc2nc1Nc1cccc(c1)COC/C=C/COCc1cc(ccc1OCCN1CCOCC1)N2  remaining signal (cell-free assay; 0.1 µM): 97%
C=CC(=O)N1Cc2nc(-c3cc(-c4cc(Cl)cnc4Cl)c(F)cc3F)n(-c3ccncn3)c2C1  inhibition (cell-free assay, inhibitor; 1 µM): 3.8%
COc1cc(-n2cc3cc(F)cc(C(N)=O)c3n2)cc(Cl)c1C1CC(O)(CCO)Cc2ccccc21 (stereo not drawn)  inhibition (enzyme activity, inhibitor; 10 µM): 1.34%

Excerpt of the above:
CC(C)=CC1OC(C)(C)C2C=C3C(=O)C(Cl)=CC(O)C3C3C(O)C4OC4C(=O)C132 (stereo not drawn)  remaining binding (cell-free assay, competition with immobilised ligand; 10 µM): 95%
